Published values of several laboratories.
Each line is one published result; not all experiments were run side by side. Numbers after ± are the reported error.

NC[C@@H](C(=O)Nc1ccc(-c2cn[nH]c2)cc1)c1ccccc1  chemosis score (OECD 405 eye irritation; New Zealand White rabbit, eye; topical, 0.1%, 48 h (day 3), scale 0 to 4; direction not given): 0
CC[C@@H](C)[C@@H](NC(=O)[C@@H](C)NC(=O)[C@@H](CCCCN)NC(=O)[C@@H](CC(C)C)NC(=O)[C@@H](CC(C)C)NC(=O)[C@H](NC(=O)[C@@H](CCCCN)NC(=O)[C@@H](CC(C)C)NC(=O)[C@@H](CCCCN)NC(=O)[C@@H](CCCCN)NC(=O)[C@@H](CCCCN)NC(=O)[C@@H](CCCCN)NC(=O)[C@@H](C)NC(=O)[C@@H](CCCCN)NC(=O)[C@@H](CO)NC(=O)[C@@H](Cc1ccccc1)NC(=O)[C@H](NC(=O)[C@@H](CCCCN)NC(=O)[C@@H](CC(C)C)NC(=O)[C@@H](Cc1ccccc1)NC(=O)[C@@H](CO)NC(=O)[C@@H](CCCCN)NC(=O)[C@@H](Cc1c[nH]c2ccccc12)NC(=O)[C@@H](CCCCN)NC(C)=O)[C@H](C)O)[C@H](C)O)C(=O)N[C@H](CO)C(=O)N[C@H](CCCCN)C(N)=O  helical content (circular dichroism; 50% trifluoroethanol buffer; 5 °C; relative to: reference peptide in TFE): 97%
Nc1nc(-n2nnc3c2CCC2C(CO)C2CC3)nc2c1ncn2C1OC(CO)C(O)C1O (mixture of isomers)  fluorescence lifetime τ1 (frequency-domain fluorometry; methanol): 0.3 ns
O=C(CCc1ccc(CNC(C(=O)O)C2CCCCC2)cn1)NO (stereo not drawn)  AUC(tau) (human, plasma; oral, 20 mg once daily, day 1, geometric mean): 137 ng·h/mL
CC(C)[C@H](NC(=O)[C@@H]1CCCN1C(=O)[C@H](CCCNC(=N)N)NC(=O)[C@H](CS)NC(=O)[C@H](Cc1c[nH]c2ccccc12)NC(=O)[C@H](CCCNC(=N)N)NC(=O)[C@@H](Cc1ccccc1)NC(=O)[C@H](Cc1c[nH]cn1)NC(=O)[C@H](CCC(=O)O)NC(=O)[C@H](CS)NC(=O)[C@H](CS)NC(=O)CNC(=O)[C@@H]1CC(=O)N[C@@H](CCCNC(=N)N)C(=O)NCC(=O)N[C@@H](CC(=O)O)C(=O)N[C@H](Cc2ccc(O)cc2)C(=O)N1)C(N)=O [technetium-99m labelled]  tumour to tissue ratio (C57 mouse, female, B16/F1 melanoma; intravenous, 0.037 MBq, 0.5 h; relative to: tumour over kidneys): 0.28
COc1cc(N(C)CCN(C)C)c(NC(=O)CCSCC(NC(C)=O)C(=O)O)cc1Nc1nccc(-c2cn(C3CC3)c3ccccc23)n1 (stereo not drawn)  excreted amount (radio-HPLC; human, feces; 96 to 240 h, sample holds 16.61% dose; relative to: dose): 0.45%
C[N+]1(CC(=O)OC2CCCCCCCCCCC2)CCCCC1  clearance (mouse, plasma; intraperitoneal, 5 mg/kg, single dose): 0.07 L/h
O=C([O-])CN1CCN(CC(=O)[O-])CCN(CC(=O)c2ccc(-c3ccc(OCC(=O)O)cc3)cc2)CCN(CC(=O)[O-])CC1.[Eu+3]  dissociation half-life (1 M HCl; 298 K): 320 ± 20 min
C=CC(=O)Nc1cc(Nc2nccc(-c3cn(C4CC4)c4ccccc34)n2)c(OC)cc1N(C)CCNC  excreted amount (radio-HPLC; human male, feces; oral, 110 mg, 48 to 96 h, sample holds 20.06% dose; relative to: dose): 3.44%
Cc1ccc(-c2ccc(-c3cc4sccc4o3)cn2)nc1  radiative decay rate constant (TCSPC; hexanes): 0.59 ns⁻¹
CC(C)C[C@@H](NC(=O)[C@H](NC(=O)[C@H]1CCCN1)[C@H](C)O)C(=O)N[C@H](Cc1c[nH]cn1)C(=O)N[C@@H](C(=O)N[C@H](Cc1c[nH]cn1)C(=O)N[C@H](CC(N)=O)C(=O)N[C@H](CCCNC(=N)N)C(=O)N[C@H](CCCNC(=N)N)C(=O)N[C@H](CCCNC(=N)N)C(=O)N[C@H](CCCNC(=N)N)C(=O)N[C@H](CCCNC(=N)N)C(N)=O)[C@H](C)O  AUC share of terminal phase (Beagle dog, plasma; oral, 20 mg/kg): 78%
N=C(N)NCCC[C@H](NC(=O)CON=C[C@H](F)[C@@H](O)[C@H](O)[C@H](O)CO)C(=O)NCC(=O)N[C@@H](CC(=O)O)C(=O)O [fluorine-18 labelled]  tissue ratio (nude mice, U-87 MG xenograft; intravenous, 2 h; relative to: tumour over kidney): 0.74 ± 0.43
C=C[C@@H]1C[C@]1(NC(=O)[C@@H]1C[C@@H](Oc2cc(-c3ccccc3)nc3cc(OC)ccc23)CN1C(=O)[C@@H](NC(=O)OC(C)(C)C)C(C)(C)C)C(=O)NS(=O)(=O)C1CC1  liver to plasma ratio (rat, liver and plasma; 8 h; relative to: liver over plasma): 150 fold
CC(C)(O)c1ncc([S@](N)(=O)=NC(=O)Nc2c3c(cc4c2CCC4)CCC3)s1  Cmax (healthy human, fed; oral, 50 mg twice daily, day 1, tablet formulation, geometric mean): 3940 ng/mL
[11CH3]c1ccc2nc(C3CCC3)n(-c3ccc4[nH]ncc4c3)c2n1  absorbed dose (extrapolated from mouse biodistribution; standard human, drain): 1.1 µSv/MBq
CCc1c2c(nc3ccc(O)cc13)-c1cc3c(c(=O)n1C2)COC(=O)[C@]3(O)CC  Tmax (human patients, plasma; intravenous, 42 mg/m^2 of parent drug): 1.52 h
N=C(N)NCCC[C@@H]1NC(=O)[C@H](Cc2c[nH]c3ccccc23)NC(=O)[C@@H](CC2CCCCC2)NC(=O)[C@@H]2CCCN2C(=O)[C@@H](NC(=O)CCc2ccccc2)CCCNC1=O  absorption rate constant (C57BL/6J mice, brain; intraperitoneal, 1 mg/kg, two-compartment model): 3.81 h⁻¹
CN(C(=O)Cn1c(=O)oc2ccc(-c3ccc(OCC[18F])cc3)cc21)c1ccccc1  intact parent fraction (ischemic Sprague-Dawley rats, plasma; intravenous, 10 MBq radiolabelled, 60 min): 3.9 ± 1.1%
COc1ccc(-c2csc(N/N=C(\C)c3cc(O)cc(O)c3)n2)cc1  concentration after storage (LC-MS/MS; rat plasma; 1000 ng/mL, 45 days, long-term storage at -20 °C): 1030 ng/mL
Brc1ccc(Nc2nc(NN=Cc3c[nH]c4ccccc34)nc(N3CCOCC3)n2)cc1  hepatic clearance (human liver microsomes; in vivo extrapolated): 0 mL/min
NCC(=O)NCC(=O)NCC(=O)NCC(=O)NCC(=O)NCC(=O)NCCCC[C@H](NC(=O)[C@@H]1CCCN1C(=O)[C@@H]1CSSCCC(=O)N[C@@H](Cc2ccc(O)cc2)C(=O)N[C@@H](Cc2ccccc2)C(=O)N[C@@H](CCCC(N)=O)C(=O)N[C@@H](CC(N)=O)C(=O)N1)C(=O)NCC(N)=O  adverse effect level (ataxia) (male Sprague Dawley rats; sc, single dose): 3.84 mg/kg
COCCOCCOCCOCCOCCOCCOCCOCCC(=O)NCCCc1cc2cc3nc(cc4[nH]c(cc5nc(c(OC)c1[nH]2)C(=O)C5(C)C)cc4CCc1ccc(C(=O)O)cc1)CC3(C)C  kf^−1 (DMF; room temperature): 16 ns
Cc1ccc(OCC(=O)N(Cc2cccs2)c2ccn[nH]2)cc1  half-life (male Sprague-Dawley rat, plasma; intravenous, 1 mg/kg, single dose): 15 min
O=C(OCc1cccc(O)c1O)c1ccc(O)c(CO)c1  C0 (male CD-1 mouse, plasma; intravenous, 10 mg/kg, single dose): 54.6 µg/mL
OC1(C(F)(F)F)CCN(c2nc(Nc3ccnc(C(F)(F)F)c3)nc(-c3cccc(C(F)(F)F)n3)n2)C1 (stereo not drawn)  tissue concentration ratio (Sprague-Dawley rat, both sexes; oral, 10 mg/kg; relative to: bone marrow over brain): ~15.7 fold
CC/C=C\C/C=C\C/C=C\C/C=C\C/C=C\CCCCOC(CC)C(=O)O (stereo not drawn)  tissue concentration (14C radiolabel; Wistar rats male, muscle; oral, 100 mg/kg, 4 h): 10 µg/g
CC(=O)N[C@H](CC(=O)O)C(=O)N[C@H](Cc1c[nH]c2ccccc12)C(=O)N[C@H](Cc1ccccc1)C(=O)N[C@H](CCCCN)C(=O)N[C@H](C)C(=O)N[C@H](Cc1ccccc1)C(=O)N[C@H](Cc1ccc(O)cc1)C(=O)N[C@H](CC(=O)O)C(=O)N[C@H](CCCCN)C(=O)N[C@@H](C(=O)N[C@H](C)C(=O)N[C@H](CCC(=O)O)C(=O)N[C@H](CCCCN)C(=O)N[C@H](Cc1ccccc1)C(=O)N[C@H](CCCCN)C(=O)N[C@H](CCC(=O)O)C(=O)N[C@H](C)C(=O)N[C@H](Cc1ccccc1)C(N)=O)C(C)C  AUC(0-t) (statin-treated high-risk CHD men, plasma; oral, 500 mg daily, day 1, 0 to 2 h, mean observed, outlier excluded): 32.9 ng·h/mL
O=C(O)CCC(NC(=O)NC(CCCCNC(=O)C(Cc1ccc2ccccc2c1)NC(=O)C1CCC(CNC(=S)Nc2ccc(CC(CN(CC(=O)O)C3CCCCC3N(CC(=O)O)CC(=O)O)N(CC(=O)O)CC(=O)O)cc2)CC1)C(=O)O)C(=O)O (stereo not drawn)  liver and spleen uptake (68Ga PET/CT; human; intravenous, 3 nmol; relative to: HBED-CC conjugate): ~2 fold
NCC(=O)N1CCC[C@H]1C(=O)N1C[C@H](O)C[C@H]1C(=O)O  log beta (potentiometric titration; 37 °C, MA complex, added: Fe(III)): 17
COc1cccc([O-])c1C=NCCCN(C)CCN(C)CCCN=Cc1c([O-])cccc1OC.[67Ga+3]  tissue uptake ratio (rat; intravenous, 1 min; relative to: heart over lung): 1 ± 0.05
Cn1c(=O)oc2ccc(-c3ccc(CC(C#N)NC(=O)C4CNCCCO4)c(F)c3)cc21 (stereo not drawn)  subjects with adverse event (item: blood triglycerides increased; human; 40 mg, treatment-related, single dose, fasted): 25%
CC(C)c1cnc(-c2cc(Cl)ccc2F)cc1Nc1ccncc1C(=O)NC(CO)CO  patients with treatment-related adverse event (monotherapy, item: myalgia; human patients; oral, dose not given, grade 1, phase I A): 4.8%
CN(C)C(CNC(=O)Nc1cc(C(F)(F)F)ccc1N1CCOCC1)c1ccncc1 (stereo not drawn)  recovery (plasma protein binding; human, plasma; time not given): 117%
NC(=O)[C@H](Cc1ccccc1)N[11C](=O)OCc1ccccc1  intact tracer (male Wistar rats, brain supernatant; intravenous, 5 min): > 99.9%
COc1cc(NC(C)=O)c2c(c1O)-c1c(OC)c(OC)cc3c1C(C2)N(C)CC3 (stereo not drawn)  remaining compound (rat lung homogenate; 50 µg/mL, time not given, three freeze-thaw cycles): 104 ± 5.3%
NC12CNCCNCC(NCc3ccc(CNC(=O)CCCC(=O)NCc4ccc(-c5nncnn5)cc4)cc3)(CNCCNC1)CNCCNC2.[64Cu+2]  mean absorbed dose (OLINDA dosimetry; thyroid; 48 h pretargeting interval, added: huA33-TCO pretargeting): 0.0328 rad/mCi
O=C([O][Ti+2][O]C(=O)c1ccc(P(c2ccccc2)c2ccccc2)cc1)c1ccc(P(c2ccccc2)c2ccccc2)cc1.[Cl][Au].[Cl][Au].c1cc[cH-]c1.c1cc[cH-]c1  absorption rate constant (ICP-MS, item: gold; NOD.CB17-Prkdc scid/J mice, blood; 7.5 mg/kg, after first injection): 1.3 h⁻¹
[2H]C([2H])([2H])NC(=O)c1ccc(N2C(=S)N(c3ccc(C#N)c(C(F)(F)F)c3)C(=O)C2(C)C)cc1F  Vd/F (human, male; oral, 160 mg, single dose, fasted): 48.2 ± 14 L
COc1cc(/C=C/C(=O)N2CCc3ccccc3C2)ccc1O[11CH3]  uptake (PET-CT imaging; C57BL/6 mouse, male, lung; intravenous, 5 min): 9.5 ± 0.15 %ID/cc
COc1cc([O-])c(C=NCCCN(C)CCN(C)CCCN=Cc2c([O-])cc(OC)cc2OC)c(OC)c1.[67Ga+3]  tissue uptake ratio (rat; intravenous, 1 min; relative to: heart over lung): 0.58 ± 0.04
[2H]C([2H])([2H])Oc1cc2c(cc1OC([2H])([2H])[2H])[C@H]1CC(=O)[C@H](CC(C)C)CN1CC2  subjects with adverse event (item: somnolence; human; oral, 25 mg): 19%
NC(=O)/C=C/c1cccc(S(=O)(=O)Nc2ccccc2)c1  half-life (human, mild liver dysfunction, plasma; intravenous, 400 mg/m^2 belinostat, 30 min infusion, cycle 1 day -7): 460 min

For quick reference, copied from above:
O=C([O-])CN1CCN(CC(=O)[O-])CCN(CC(=O)c2ccc(-c3ccc(OCC(=O)O)cc3)cc2)CCN(CC(=O)[O-])CC1.[Eu+3]  dissociation half-life (1 M HCl; 298 K): 320 ± 20 min
C=CC(=O)Nc1cc(Nc2nccc(-c3cn(C4CC4)c4ccccc34)n2)c(OC)cc1N(C)CCNC  excreted amount (radio-HPLC; human male, feces; oral, 110 mg, 48 to 96 h, sample holds 20.06% dose; relative to: dose): 3.44%
